Measured values from different studies.
A part holds a random share of what one study measured. Values joined by “and” are separate records of one study, mostly repeats; a detail may differ.
Sequence of UniProt O14965 (whole entry, looked up): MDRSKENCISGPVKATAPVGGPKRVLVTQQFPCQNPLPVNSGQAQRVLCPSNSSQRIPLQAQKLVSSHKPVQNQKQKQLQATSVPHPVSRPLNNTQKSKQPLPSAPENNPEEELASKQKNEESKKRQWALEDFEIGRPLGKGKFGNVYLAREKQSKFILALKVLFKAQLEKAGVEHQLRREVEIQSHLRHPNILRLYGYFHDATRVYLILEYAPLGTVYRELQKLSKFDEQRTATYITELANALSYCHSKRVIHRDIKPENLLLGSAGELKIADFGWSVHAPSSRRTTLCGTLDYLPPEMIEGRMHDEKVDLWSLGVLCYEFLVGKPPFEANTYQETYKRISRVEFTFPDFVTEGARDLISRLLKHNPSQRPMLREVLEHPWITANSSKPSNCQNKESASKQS
Sequence of UniProt P53779 (whole entry, looked up): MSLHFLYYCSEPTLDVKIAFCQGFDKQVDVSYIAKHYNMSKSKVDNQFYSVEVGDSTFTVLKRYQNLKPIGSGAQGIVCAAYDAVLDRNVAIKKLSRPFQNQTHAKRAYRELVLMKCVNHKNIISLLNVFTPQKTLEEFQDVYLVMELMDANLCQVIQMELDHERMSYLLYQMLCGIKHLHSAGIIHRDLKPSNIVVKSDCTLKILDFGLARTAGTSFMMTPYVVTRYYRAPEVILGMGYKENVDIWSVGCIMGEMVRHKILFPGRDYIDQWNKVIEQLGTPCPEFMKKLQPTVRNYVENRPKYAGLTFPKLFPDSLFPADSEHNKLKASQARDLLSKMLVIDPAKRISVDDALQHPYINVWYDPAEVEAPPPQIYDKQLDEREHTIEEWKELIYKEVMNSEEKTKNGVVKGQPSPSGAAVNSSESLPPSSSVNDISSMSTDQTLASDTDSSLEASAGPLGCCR
Sequence of UniProt O14578 (whole entry, looked up): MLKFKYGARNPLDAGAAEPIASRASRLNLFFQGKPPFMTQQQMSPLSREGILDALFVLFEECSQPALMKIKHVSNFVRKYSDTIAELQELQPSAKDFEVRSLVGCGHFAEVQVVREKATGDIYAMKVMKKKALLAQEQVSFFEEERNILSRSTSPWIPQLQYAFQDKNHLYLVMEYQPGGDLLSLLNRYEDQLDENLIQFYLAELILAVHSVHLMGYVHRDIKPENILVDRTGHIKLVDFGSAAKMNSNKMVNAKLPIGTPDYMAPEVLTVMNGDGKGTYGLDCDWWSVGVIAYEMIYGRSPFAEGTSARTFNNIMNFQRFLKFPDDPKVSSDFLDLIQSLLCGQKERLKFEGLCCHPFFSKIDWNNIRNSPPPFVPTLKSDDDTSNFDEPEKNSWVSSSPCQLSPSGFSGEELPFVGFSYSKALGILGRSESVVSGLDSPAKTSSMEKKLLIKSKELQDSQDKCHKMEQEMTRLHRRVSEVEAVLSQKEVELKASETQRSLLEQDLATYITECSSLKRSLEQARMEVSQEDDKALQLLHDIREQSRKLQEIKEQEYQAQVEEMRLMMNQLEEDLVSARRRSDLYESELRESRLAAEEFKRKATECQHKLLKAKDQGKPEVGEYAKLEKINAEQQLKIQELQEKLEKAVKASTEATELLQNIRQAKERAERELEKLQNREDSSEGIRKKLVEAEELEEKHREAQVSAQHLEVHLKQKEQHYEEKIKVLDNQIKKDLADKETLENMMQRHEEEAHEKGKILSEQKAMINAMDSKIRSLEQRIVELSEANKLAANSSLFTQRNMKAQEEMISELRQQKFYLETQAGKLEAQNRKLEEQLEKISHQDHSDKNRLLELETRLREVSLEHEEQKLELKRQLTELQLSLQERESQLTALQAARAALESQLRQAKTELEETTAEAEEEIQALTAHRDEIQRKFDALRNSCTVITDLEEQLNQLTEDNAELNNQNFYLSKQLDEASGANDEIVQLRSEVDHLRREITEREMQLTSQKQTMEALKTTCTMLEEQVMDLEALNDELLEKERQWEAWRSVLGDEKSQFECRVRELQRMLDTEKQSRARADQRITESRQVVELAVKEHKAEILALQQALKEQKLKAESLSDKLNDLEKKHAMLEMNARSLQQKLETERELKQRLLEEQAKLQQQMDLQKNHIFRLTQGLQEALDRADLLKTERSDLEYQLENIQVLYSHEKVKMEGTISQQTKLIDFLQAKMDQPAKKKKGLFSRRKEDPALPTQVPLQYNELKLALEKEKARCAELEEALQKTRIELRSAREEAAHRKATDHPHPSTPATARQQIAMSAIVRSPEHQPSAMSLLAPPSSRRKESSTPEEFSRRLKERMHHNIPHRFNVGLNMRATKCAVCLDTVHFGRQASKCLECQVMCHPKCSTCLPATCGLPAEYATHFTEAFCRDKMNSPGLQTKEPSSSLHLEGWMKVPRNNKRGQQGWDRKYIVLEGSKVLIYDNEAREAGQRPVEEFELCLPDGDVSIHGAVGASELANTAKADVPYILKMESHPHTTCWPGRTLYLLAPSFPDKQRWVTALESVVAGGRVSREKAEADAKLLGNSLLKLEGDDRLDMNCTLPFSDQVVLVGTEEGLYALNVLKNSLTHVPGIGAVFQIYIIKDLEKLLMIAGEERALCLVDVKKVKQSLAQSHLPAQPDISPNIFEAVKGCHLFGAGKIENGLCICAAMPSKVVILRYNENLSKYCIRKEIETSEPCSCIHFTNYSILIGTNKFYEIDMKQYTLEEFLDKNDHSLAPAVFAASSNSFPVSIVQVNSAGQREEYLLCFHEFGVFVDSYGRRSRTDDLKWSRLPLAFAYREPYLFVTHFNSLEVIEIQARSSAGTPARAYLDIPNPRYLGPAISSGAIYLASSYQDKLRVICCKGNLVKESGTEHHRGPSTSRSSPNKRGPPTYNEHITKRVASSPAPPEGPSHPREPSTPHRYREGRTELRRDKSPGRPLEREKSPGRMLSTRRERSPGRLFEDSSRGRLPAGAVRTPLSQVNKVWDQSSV
Sequence of UniProt Q15139 (whole entry, looked up): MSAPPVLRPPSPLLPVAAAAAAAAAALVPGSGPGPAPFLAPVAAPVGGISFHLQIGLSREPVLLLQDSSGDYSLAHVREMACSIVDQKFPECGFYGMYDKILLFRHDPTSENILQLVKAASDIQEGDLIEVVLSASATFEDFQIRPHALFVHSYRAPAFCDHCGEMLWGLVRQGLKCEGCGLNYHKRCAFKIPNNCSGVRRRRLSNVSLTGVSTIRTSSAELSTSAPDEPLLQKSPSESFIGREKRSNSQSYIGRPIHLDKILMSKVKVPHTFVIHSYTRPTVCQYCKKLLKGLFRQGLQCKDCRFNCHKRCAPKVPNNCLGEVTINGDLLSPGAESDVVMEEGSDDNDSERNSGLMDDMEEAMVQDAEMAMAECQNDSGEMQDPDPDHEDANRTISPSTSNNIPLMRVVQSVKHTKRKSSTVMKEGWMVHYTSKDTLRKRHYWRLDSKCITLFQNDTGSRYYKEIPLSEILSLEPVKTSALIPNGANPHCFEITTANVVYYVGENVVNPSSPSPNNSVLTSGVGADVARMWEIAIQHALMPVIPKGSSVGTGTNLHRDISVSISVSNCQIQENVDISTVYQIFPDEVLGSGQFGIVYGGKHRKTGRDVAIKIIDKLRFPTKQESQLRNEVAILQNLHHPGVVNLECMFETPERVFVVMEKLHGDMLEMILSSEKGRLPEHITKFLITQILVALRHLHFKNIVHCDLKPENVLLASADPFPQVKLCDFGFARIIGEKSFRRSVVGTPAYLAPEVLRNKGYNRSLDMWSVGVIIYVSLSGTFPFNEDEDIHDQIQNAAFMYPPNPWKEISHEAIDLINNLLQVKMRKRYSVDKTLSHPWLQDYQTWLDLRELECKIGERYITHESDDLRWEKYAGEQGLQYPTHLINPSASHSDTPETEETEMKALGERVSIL
Sequence of UniProt Q9H2G2 (whole entry, looked up): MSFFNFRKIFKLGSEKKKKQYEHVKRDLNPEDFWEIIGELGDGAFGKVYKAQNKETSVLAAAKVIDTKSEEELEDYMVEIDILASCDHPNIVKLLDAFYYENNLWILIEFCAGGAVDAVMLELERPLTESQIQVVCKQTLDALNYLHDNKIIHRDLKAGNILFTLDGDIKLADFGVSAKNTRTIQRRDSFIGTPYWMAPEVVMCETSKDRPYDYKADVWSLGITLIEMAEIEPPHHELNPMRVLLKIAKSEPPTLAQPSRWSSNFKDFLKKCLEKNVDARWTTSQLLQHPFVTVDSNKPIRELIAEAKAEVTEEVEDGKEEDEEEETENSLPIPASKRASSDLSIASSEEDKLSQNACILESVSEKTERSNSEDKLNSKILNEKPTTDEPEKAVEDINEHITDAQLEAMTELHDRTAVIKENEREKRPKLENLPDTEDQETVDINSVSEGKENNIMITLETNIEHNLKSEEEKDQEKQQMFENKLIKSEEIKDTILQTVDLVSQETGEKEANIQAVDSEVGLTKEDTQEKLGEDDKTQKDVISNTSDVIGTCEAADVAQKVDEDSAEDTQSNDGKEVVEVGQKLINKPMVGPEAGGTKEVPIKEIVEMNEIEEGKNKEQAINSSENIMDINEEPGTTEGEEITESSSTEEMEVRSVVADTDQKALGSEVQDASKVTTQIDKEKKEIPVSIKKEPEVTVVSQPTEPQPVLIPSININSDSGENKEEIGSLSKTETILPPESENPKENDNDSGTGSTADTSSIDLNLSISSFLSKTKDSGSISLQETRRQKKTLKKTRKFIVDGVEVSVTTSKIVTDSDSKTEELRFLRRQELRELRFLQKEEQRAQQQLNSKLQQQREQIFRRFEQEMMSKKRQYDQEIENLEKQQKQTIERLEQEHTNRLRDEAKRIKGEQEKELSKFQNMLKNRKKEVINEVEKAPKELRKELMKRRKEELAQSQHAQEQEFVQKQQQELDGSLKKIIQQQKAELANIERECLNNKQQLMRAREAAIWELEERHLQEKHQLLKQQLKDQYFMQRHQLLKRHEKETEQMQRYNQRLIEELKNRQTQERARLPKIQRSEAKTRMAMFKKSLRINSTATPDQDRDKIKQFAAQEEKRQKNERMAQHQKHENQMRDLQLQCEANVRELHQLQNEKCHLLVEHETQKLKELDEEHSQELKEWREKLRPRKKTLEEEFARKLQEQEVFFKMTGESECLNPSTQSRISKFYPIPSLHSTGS

Sample 1
Structure (SMILES): CN1CC[C@H](c2c(O)cc(O)c3c(=O)cc(-c4ccccc4Cl)oc23)[C@H](O)C1
Host: nude mouse, HH xenograft
Dose: dose not given
time	tumour volume
day 8	219 mm³ and 103 mm³ and 56.1 mm³ and 115 mm³ and 101 mm³ and 61.9 mm³ and 110 mm³ and 154 mm³
day 0	0 mm³
day 4	41.5 mm³ and 75.7 mm³ and 46.5 mm³ and 65.8 mm³ and 85.7 mm³ and 60.3 mm³ and 78 mm³ and 80 mm³
day 2	39.4 mm³ and 37.8 mm³ and 42.8 mm³ and 20.8 mm³ and 36.8 mm³ and 23.2 mm³ and 32.7 mm³ and 38.2 mm³

Sample 2
Structure (SMILES): CC(C)n1cnc(-c2ccc(F)cc2)c1-c1ncc(C(=O)Nc2ccc(N3CCN(C)CC3)cc2)[nH]1
Technique: phase 2a trial
Host: idiopathic pulmonary fibrosis patients
dose	setting	patients with productive cough [%]
60 mg once daily	grade 5 emergent event	0
all arms	grade 4 emergent event	0
all arms	grade 1 emergent event	0
all arms	grade 3 emergent event	0
30 mg once daily	grade 4 emergent event	0
30 mg once daily	grade 3 emergent event	0
60 mg once daily	grade 2 emergent event	0
30 mg once daily	grade 1 emergent event	0

Sample 3
Compound: CC(=O)N1CCN(c2nc(OC[C@@H]3CCCN3C)nc3c2CCN(c2cccc4cccc(Cl)c24)C3)C[C@@H]1CC#N
Effect on: binding
Mode: competitor
Technique: NanoBRET
Cells: HEK293
KRAS Q61H: GTPase KRas (KRAS, Homo sapiens, UniProt P01116, Q61H)
target	tested at	normalized BRET
GTPase KRas (KRAS, Homo sapiens, UniProt P01116, G13D)	11.1 µM	16.7% and 12% and 10.4%
KRAS Q61H	11.1 µM	15.4% and 20% and 17.7%
KRAS Q61H	1.24 µM	51% and 51.1% and 57.6%
GTPase KRas (KRAS, Homo sapiens, UniProt P01116, Q61L)	15.2 nM	90.6% and 91.4% and 96.6%
GTPase KRas (KRAS, Homo sapiens, UniProt P01116, Q61R)	412 nM	97.6% and 105% and 94%

Sample 4
SMILES: CCN1/C(=C/C(C)=O)Sc2ccc(OC)cc21
Effect on: enzyme activity
Mode: inhibitor
Tested at: 0.5 µM
Baseline: control
target	remaining activity [%]
MAPK10 (Homo sapiens, UniProt P53779)	102
CSNK2A2 (Homo sapiens, UniProt P19784)	89.7
GRK5 (Homo sapiens, UniProt P34947)	108
BRSK1 (Homo sapiens, UniProt Q8TDC3)	89.4
DMPK (Homo sapiens, UniProt Q09013)	101
CDK7 (Homo sapiens, UniProt P50613)	94.8
SLK (Homo sapiens, UniProt Q9H2G2)	86.8
NEK9 (Homo sapiens, UniProt Q8TD19)	102
MAP3K8 (Homo sapiens, UniProt P41279)	103
Cyclin-dependent kinase 2, with cyclin A (CDK2, Homo sapiens, UniProt P24941)	89.7
MAP3K2 (Homo sapiens, UniProt Q9Y2U5)	101
PKN2 (Homo sapiens, UniProt Q16513)	99.7
DYRK4 (Homo sapiens, UniProt Q9NR20)	82.3
PRKD1 (Homo sapiens, UniProt Q15139)	78.1
CAMK1D (Homo sapiens, UniProt Q8IU85)	105
PTK2B (Homo sapiens, UniProt Q14289)	97.8
ROCK2 (Homo sapiens, UniProt O75116)	90.7
NTRK3 (Homo sapiens, UniProt Q16288)	91.9
ROS1 (Homo sapiens, UniProt P08922)	113
CAMK1G (Homo sapiens, UniProt Q96NX5)	101
Aurora kinase A (AURKA, Homo sapiens, UniProt O14965)	108
RET (Homo sapiens, UniProt P07949)	96.5
HIPK3 (Homo sapiens, UniProt Q9H422)	100
EGFR (Homo sapiens, UniProt P00533)	99.1

Sample 5
SMILES: N#Cc1ccc(Nc2ccc3[nH]c(=O)[nH]c3c2)c(Cl)c1
Effect on: cell-free assay
Technique: competition with immobilised ligand
Tested at: 1 µM
target	remaining binding [%]
Ribosomal protein S6 kinase alpha-2, C-terminal kinase domain (RPS6KA2, Homo sapiens, UniProt Q15349)	100
DDR1 (Homo sapiens, UniProt Q08345)	100
ERBB3 (Homo sapiens, UniProt P21860)	97
CIT (Homo sapiens, UniProt O14578)	100
EPHA5 (Homo sapiens, UniProt P54756)	100
NLK (Homo sapiens, UniProt Q9UBE8)	100
STK3 (Homo sapiens, UniProt Q13188)	100
DYRK1A (Homo sapiens, UniProt Q13627)	100
HIPK1 (Homo sapiens, UniProt Q86Z02)	82
SNRK (Homo sapiens, UniProt Q9NRH2)	100

Some of these lines once more (sample 1):
time	tumour volume
day 8	219 mm³ and 103 mm³ and 56.1 mm³ and 115 mm³ and 101 mm³ and 61.9 mm³ and 110 mm³ and 154 mm³
day 0	0 mm³
day 4	41.5 mm³ and 75.7 mm³ and 46.5 mm³ and 65.8 mm³ and 85.7 mm³ and 60.3 mm³ and 78 mm³ and 80 mm³
day 2	39.4 mm³ and 37.8 mm³ and 42.8 mm³ and 20.8 mm³ and 36.8 mm³ and 23.2 mm³ and 32.7 mm³ and 38.2 mm³
